Measurements pooled from the literature.
Each line is one published result; not all experiments were run side by side. Values joined by “and” are separate records of one study, mostly repeats; a detail may differ. ± gives the spread as reported.
BCHE: Cholinesterase (BCHE, Homo sapiens, UniProt P06276)
Chain of UniProt P06276 (whole entry, looked up): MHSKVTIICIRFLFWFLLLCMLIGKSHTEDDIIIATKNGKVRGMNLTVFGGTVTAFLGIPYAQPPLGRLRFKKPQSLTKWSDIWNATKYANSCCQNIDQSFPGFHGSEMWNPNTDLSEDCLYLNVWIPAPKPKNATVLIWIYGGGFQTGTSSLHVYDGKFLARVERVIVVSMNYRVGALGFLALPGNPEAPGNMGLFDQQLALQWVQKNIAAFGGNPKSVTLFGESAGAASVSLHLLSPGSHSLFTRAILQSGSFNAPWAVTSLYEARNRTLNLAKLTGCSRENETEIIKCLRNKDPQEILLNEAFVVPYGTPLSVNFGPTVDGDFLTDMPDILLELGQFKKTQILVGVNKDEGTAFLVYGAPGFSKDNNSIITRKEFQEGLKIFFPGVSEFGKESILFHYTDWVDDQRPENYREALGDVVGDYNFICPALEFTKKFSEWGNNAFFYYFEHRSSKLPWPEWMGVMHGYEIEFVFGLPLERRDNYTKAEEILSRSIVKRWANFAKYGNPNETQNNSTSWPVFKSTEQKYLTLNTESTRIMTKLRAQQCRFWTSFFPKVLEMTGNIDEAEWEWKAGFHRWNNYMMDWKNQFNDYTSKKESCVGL
Chain of UniProt P31751 (whole entry, looked up): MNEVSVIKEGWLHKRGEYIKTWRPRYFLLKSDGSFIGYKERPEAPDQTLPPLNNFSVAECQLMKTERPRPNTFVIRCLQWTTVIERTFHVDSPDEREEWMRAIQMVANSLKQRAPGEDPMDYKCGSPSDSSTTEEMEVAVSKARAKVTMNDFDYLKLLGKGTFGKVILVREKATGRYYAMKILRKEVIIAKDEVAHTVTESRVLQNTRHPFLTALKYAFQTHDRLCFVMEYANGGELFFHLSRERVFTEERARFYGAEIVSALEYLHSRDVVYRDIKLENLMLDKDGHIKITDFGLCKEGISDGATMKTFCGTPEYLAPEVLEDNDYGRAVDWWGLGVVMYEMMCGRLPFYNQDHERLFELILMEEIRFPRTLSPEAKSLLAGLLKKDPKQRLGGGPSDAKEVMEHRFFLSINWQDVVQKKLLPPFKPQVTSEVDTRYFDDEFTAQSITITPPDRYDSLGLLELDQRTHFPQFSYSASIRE
Chain of UniProt P30411 (whole entry, looked up): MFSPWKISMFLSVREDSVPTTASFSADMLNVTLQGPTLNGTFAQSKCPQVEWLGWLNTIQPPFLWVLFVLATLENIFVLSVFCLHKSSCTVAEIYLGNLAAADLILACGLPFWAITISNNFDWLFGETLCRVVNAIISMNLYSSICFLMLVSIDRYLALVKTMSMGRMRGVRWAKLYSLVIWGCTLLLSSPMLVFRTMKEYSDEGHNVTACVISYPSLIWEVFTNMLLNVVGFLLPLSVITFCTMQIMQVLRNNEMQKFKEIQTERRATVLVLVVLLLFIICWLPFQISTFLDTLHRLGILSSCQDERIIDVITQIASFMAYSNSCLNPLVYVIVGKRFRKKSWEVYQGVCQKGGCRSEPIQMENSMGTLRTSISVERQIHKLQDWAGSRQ
Chain of UniProt O70528 (whole entry, looked up): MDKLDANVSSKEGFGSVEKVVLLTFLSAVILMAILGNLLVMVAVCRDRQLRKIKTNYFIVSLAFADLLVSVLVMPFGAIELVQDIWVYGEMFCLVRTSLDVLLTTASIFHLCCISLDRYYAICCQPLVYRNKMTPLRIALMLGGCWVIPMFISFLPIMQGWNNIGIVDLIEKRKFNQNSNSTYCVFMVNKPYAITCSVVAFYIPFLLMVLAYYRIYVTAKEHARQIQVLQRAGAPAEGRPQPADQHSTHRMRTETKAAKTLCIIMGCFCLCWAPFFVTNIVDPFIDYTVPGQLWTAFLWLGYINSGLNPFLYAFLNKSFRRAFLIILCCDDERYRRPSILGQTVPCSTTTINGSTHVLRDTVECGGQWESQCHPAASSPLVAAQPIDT
Chain of UniProt P00742 (whole entry, looked up): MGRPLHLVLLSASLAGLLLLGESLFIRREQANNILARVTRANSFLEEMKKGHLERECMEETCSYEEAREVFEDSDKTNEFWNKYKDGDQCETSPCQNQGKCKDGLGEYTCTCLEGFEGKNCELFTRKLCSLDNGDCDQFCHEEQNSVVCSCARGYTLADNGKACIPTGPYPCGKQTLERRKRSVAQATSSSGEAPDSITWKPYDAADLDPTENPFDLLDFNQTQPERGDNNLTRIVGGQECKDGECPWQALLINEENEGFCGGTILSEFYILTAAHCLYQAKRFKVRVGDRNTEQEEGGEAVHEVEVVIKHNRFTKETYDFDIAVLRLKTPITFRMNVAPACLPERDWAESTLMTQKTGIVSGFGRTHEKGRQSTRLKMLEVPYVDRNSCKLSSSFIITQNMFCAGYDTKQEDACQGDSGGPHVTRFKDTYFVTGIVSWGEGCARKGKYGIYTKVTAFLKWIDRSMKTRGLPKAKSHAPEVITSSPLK

For `CC1=C(C)C(=O)C(CCCCC#CCCCC#CCO)=C(C)C1=O`, the IC50 was 10 µM (Plasmodium falciparum; Dd2).
The IC50 of `COc1c(C)c2c(c(O)c1C/C=C(\C)CCC(=O)O)C(=O)OC2` is reported as 0.49 µM (Ovarian cancer cell lines; cell proliferation).
With `C#CCN(C)[C@H](C)Cc1ccccc1` the step-through latency was 422 ± 67.8 s (passive avoidance test; APP/PS1 mice; oral, 10 mg/kg, 3 days).
`CC[C@H](C)[C@H](NC(=O)[C@H](Cc1ccccc1)NC(=O)[C@H](CCC(=O)O)NC(=O)[C@H](CCCNC(=N)N)NC(=O)[C@H](C)NC(=O)[C@H](C)NC(=O)[C@H](CCC(N)=O)NC(=O)[C@H](CCC(=O)O)NC(=O)[C@H](CCC(=O)O)NC(=O)[C@H](CC(C)C)NC(=O)[C@H](Cc1ccc(O)cc1)NC(=O)[C@H](CO)NC(=O)[C@H](CO)NC(=O)[C@@H](NC(=O)[C@H](CC(=O)O)NC(=O)[C@H](CO)NC(=O)[C@@H](NC(=O)[C@H](Cc1ccccc1)NC(=O)[C@@H](NC(=O)CNC(=O)[C@H](CCC(=O)O)NC(=O)[C@H](C)NC(=O)CCc1c[nH]cn1)[C@@H](C)O)[C@@H](C)O)C(C)C)C(=O)N[C@@H](C)C(=O)N[C@@H](Cc1c[nH]c2ccccc12)C(=O)N[C@@H](CC(C)C)C(=O)N[C@H](C(=O)N[C@@H](CCCNC(=N)N)C(=O)NCC(=O)N[C@@H](CCCNC(=N)N)C(=O)N[C@@H](CCCCNC(=O)COCCOCCNC(=O)COCCOCCNC(=O)CC[C@H](NC(=O)CCCCCCCCCCCCCCCCC(=O)O)C(=O)O)C(=O)NCC(=O)NCC(=O)N[C@@H](CO)C(=O)N[C@@H](CCCCNc1c(NCCCCCN(O)C(=O)CCC(=O)NCCCCCN(O)C(=O)CCC(=O)NCCCCCN(O)C(C)=O)c(=O)c1=O)C(=O)O)C(C)C` [zirconium-89 labelled] has a tissue uptake of 0.23 %ID/g (rat, blood; iv, 3 nmol/kg, 24 h, ex vivo).
For `CC(C)(CO)Cc1cc(C(C)(C)C)c(O)c(C(C)(C)C)c1`, the IC50 was 7.94 µM (Plasmodium falciparum; W2).
The mean Log10GI50 of `COc1cc(CCC[P+](c2ccccc2)(c2ccccc2)c2ccccc2)c(OC)c2c1OCO2.[I-]` is reported as -5.78 log M (NCI60 panel; SRB).
With `C=C1CC[C@@]2(O)[C@H]3Cc4ccc(O)c5c4[C@@]2(CCN3CC2CC2)[C@H]1O5` the Km was 80.9 µM (H+/organic cation antiporter; cell uptake; hCMEC/D3).
The IC50 of `CCCN(CCC)[C@H]1CCc2c(F)ccc(O)c2C1` is reported as 1 µM (Plasmodium falciparum; HB3).
For `CCN1CCN(C(=O)N[C@@H](C(=O)N[C@@H]2C(=O)N3[C@@H]2SC(C)(C)[C@@H]3C(=O)O)c2ccccc2)C(=O)C1=O`, the kinact/KI was 2500 ± 620 M⁻¹ s⁻¹ (PBP1b Streptococcus pneumoniae; Bocillin-FL competition; live Streptococcus pneumoniae cells; 30 min, added: Bocillin-FL 600 nM).
The inhibition of `c1ccc(C(NCCNC(c2ccccc2)c2ccccc2)c2ccccc2)cc1` is reported as 85% (L-type calcium channel, rat, Dihydropyridine site; binding; 10 µM, Eurofins selectivity panel).
With `NC(=O)c1cc[n+](CC2=C(C(=O)O)N3C(=O)[C@@H](NC(=O)[C@@H](c4ccccc4)S(=O)(=O)[O-])[C@H]3SC2)cc1` the kinact/KI was 17000 ± 2400 M⁻¹ s⁻¹ (PBP1b Streptococcus pneumoniae; Bocillin-FL competition; live Streptococcus pneumoniae cells; 30 min, added: Bocillin-FL 600 nM).
For `COc1cc(Nc2ncc(F)c(Nc3ccc4c(n3)NC(=O)C(C)(C)O4)n2)cc(OC)c1OC`, the IC50 was > 10 µM (F10 (Homo sapiens, UniProt P00742)).
`C[C@]1(CO)Cc2ncn(-c3ccc(C#N)c(Cl)c3)c2C(=O)O1`: “urinary sodium excretion Ae(0-24h)” 212 mmol (human; 0.7 mg single dose).
With `O=C(NC1C2CC3CC(C2)CC1C3)c1cc(-c2ccc(F)nc2)c[nH]1` (stereo not shown) the IC50 was 35.2 µg/mL (Vero; 48 h).
`CC[C@H](C)[C@@H]1NC(=O)[C@@H]2CCCN2C(=O)[C@H](CC(C)C)NC(=O)[C@H](CC(C)C)NC(=O)CNC(=O)[C@@H](NC(=O)[C@@H](NC(=O)[C@H](CC(=O)O)NC(=O)CNC(=O)[C@@H](NC(=O)[C@H](C)NC(=O)CNC(=O)[C@H](CCCCN)NC(=O)[C@H](CC(C)C)NC(=O)[C@H](CC(C)C)NC(=O)[C@H](CCCCN)NC(=O)CNC(=O)[C@@H](NC(=O)[C@@H](N)CC(C)C)C(C)C)C(C)C)C(C)C)CSSC[C@@H](C(=O)O)NC1=O` — result for “log2 fold change”: -2.08 (RNA-seq, measured: Emilin2; mouse, traumatic brain injury model, frontal cortex and hippocampus; dose not given; relative to: TBI alone).
With `CN(C(=O)n1cnc(-c2ccc[n+]([O-])c2)c1)C1CCCCC1` the inhibition was 2% (BDKRB2 (Homo sapiens, UniProt P30411); radioligand binding; 10 µM, added: [3H]bradykinin).
For `O=C(NC1C2CC3CC(C2)CC1C3)c1cc(-c2ccccc2F)c[nH]1` (stereo not shown), the IC50 was 21.2 µg/mL (Vero; 48 h).
The IC50 of `Clc1ccccc1CNCC1CCC(CNCc2ccccc2Cl)CC1` (stereo not shown) is reported as 14.6 ± 17 µM (BCHE; inhibitor, fluorometric).
With `CCOC(=O)Nc1ccc(NCc2ccc(F)cc2)nc1N` the IC50 was 2 µM (Plasmodium falciparum; W2).
`O=C(Nc1cnccc1Cl)N1CCN(Cc2ccc3c(c2)OC(F)(F)O3)CC1`: “inhibition of binding” 21% (HTR4 (Cavia porcellus, UniProt O70528); radioligand binding; 50 µM, added: [3H]GR-113808).
For `Nc1ncc(-c2nc(N3CCOCC3)nc(N3CCOCC3)n2)c(C(F)F)n1`, the GI50 was 0.126 µM (SJCRH30; 72 h).
For `CCCCC1(CCCC)CN(c2ccccc2)c2cc(SC)c(OCC(=O)N[C@@H](C(=O)NCC(=O)O)c3ccccc3)cc2S(=O)(=O)C1`, the serum HDL-C was 47.6 mg/dL (measured: HDL cholesterol; human, serum; 5 mg once daily, day 7).
`C[C@H]1CN(c2n[nH]c3nc(N[C@H]4CC[C@H](NS(=O)(=O)CCC(F)(F)F)CC4)ncc23)CCO1` gave a relative abundance of 1.14 (AKT2 (Homo sapiens, UniProt P31751); inhibitor, Kinobeads competition profiling; 0.032 µM; relative to: vehicle).
The IC50 of `O=C(NC12CC3CC(CC(C3)C1)C2)c1cc(-c2ccc(F)cc2F)c[nH]1` is reported as 32 µg/mL (Vero; 48 h).
The IC50 of `O=C(NCCCCN1CCN(c2cccc(Cl)c2Cl)CC1)c1cc2ccccc2s1` is reported as 25.3 ± 1.71 µM (BCHE; inhibitor; with Triton).
The IC50 of `COc1cc2c(cc1C(F)(F)F)N(C(=O)Nc1cc(F)cc(-c3cccnc3)c1)CC2` is reported as 1.58 µM (Plasmodium falciparum; 7G8).
With `CC(=O)c1cc(O)c2ccccc2c1O` the EC50 was 0.32 µM (Dengue virus 2; viral replication).
With `CNC1(c2ccccc2Cl)CCCCC1=O` (stereo not shown) the Vmax was 600 pmol/min/mg protein (H+/organic cation antiporter; cell uptake; hCMEC/D3).
The IC50 of `O=C(NC12CC3CC(CC(C3)C1)C2)c1cc(-c2ccncc2F)c[nH]1` is reported as > 64 µg/mL (Vero; 48 h).
For `C#CCN(C)[C@H](C)Cc1ccccc1`, “corridor crossing time” read 5.93 s and 4.8 s and 3.59 s and 5.73 s and 5.85 s and 5.58 s and 5.04 s (footprint test; MPTP-induced Parkinson's disease mouse model; 10 mg/kg, mean of three trials).
The GI50 of `COc1c(CCC[P+](c2ccccc2)(c2ccccc2)c2ccccc2)cc2c(c1OC)OCO2.[I-]` is reported as -5.97 log M (SR; SRB).
`O=C1NC(=O)C(C2C3=C(CCCC3=O)Oc3ccc([N+](=O)[O-])cc32)C(=O)N1` (stereo not shown): mRNA level “decreased” (mouse preadipocytes; qPCR, measured: IRS-1; IC20, 14 days, adipogenic induction; relative to: untreated cells).
For `Nc1ncnc2c1ncn2[C@@H]1O[C@@H]2COP(=O)(O)O[C@H]3[C@@H](O)[C@H](n4cnc5c(=O)[nH]cnc54)O[C@@H]3COP(=O)(O)O[C@H]2[C@H]1O`, “pathway fold enrichment” read 2.89 (HFF-1; RNA sequencing, measured: Immune System; upregulated pathway; relative to: Zika virus alone).
The IC50 of `CC1Cc2cc3c(cc2C(c2ccc(N)cc2)=NN1)OCO3` (stereo not shown) is reported as 5.01 µM (Plasmodium falciparum; W2).
The OD600 of `OC(Cn1cncn1)(Cn1cncn1)c1ccc(F)cc1F` is reported as 0.05 and 0.051 (Saccharomyces cerevisiae; cell growth; Pdr5 deleted, empty vector; 2^-1 µg/mL).
For `COc1ccc2c(c1)[nH]c1c(C)nccc12`, the DNA methylation was 86.7% (DU-145; bisulfite pyrosequencing, measured: RASSF1A promoter CpG site 25; 10 µM, 16 h).
`NC(=Nc1ccccc1)NC(=O)c1nc(Cl)c(N)nc1N` has an IC50 of 7.94 µM (Plasmodium falciparum; D10).
`Nc1ccn(C[C@@H](CO)OCP(=O)(O)O)c(=O)n1` gave an infection of 111% and 108% and 99.4% (Fowlpox virus; viral infection; CEF; 3.125 µM; relative to: untreated).
`CCN(CC)CCOCCOC(=O)C1(c2ccccc2)CCCC1` gave an IC50 of 12.6 µM (Plasmodium falciparum; 3D7).
The mRNA level of `C[C@H]1O[C@@H](O[C@H]2CC[C@@]3(C)[C@@H](CC[C@]4(C)[C@@H]3C=C[C@]35OC[C@@]6(CCC(C)(C)C[C@H]63)[C@@H](O)C[C@]54C)[C@]2(C)CO)[C@H](O)[C@@H](O[C@@H]2O[C@H](CO)[C@@H](O)[C@H](O)[C@H]2O)[C@H]1O` is reported as 2.04 and 3.14 and 2.14 and 3.31 (measured: PPAR-α; chronic-plus-binge ethanol-fed mice, AAV8-TBG-Null, liver; dose not given, high dose, unit not given; relative to: AAV8-TBG-Null ethanol group).

A few entries again:
The mean Log10GI50 of `COc1cc(CCC[P+](c2ccccc2)(c2ccccc2)c2ccccc2)c(OC)c2c1OCO2.[I-]` is reported as -5.78 log M (NCI60 panel; SRB).
With `C=C1CC[C@@]2(O)[C@H]3Cc4ccc(O)c5c4[C@@]2(CCN3CC2CC2)[C@H]1O5` the Km was 80.9 µM (H+/organic cation antiporter; cell uptake; hCMEC/D3).
The IC50 of `CCCN(CCC)[C@H]1CCc2c(F)ccc(O)c2C1` is reported as 1 µM (Plasmodium falciparum; HB3).
For `CCN1CCN(C(=O)N[C@@H](C(=O)N[C@@H]2C(=O)N3[C@@H]2SC(C)(C)[C@@H]3C(=O)O)c2ccccc2)C(=O)C1=O`, the kinact/KI was 2500 ± 620 M⁻¹ s⁻¹ (PBP1b Streptococcus pneumoniae; Bocillin-FL competition; live Streptococcus pneumoniae cells; 30 min, added: Bocillin-FL 600 nM).
The inhibition of `c1ccc(C(NCCNC(c2ccccc2)c2ccccc2)c2ccccc2)cc1` is reported as 85% (L-type calcium channel, rat, Dihydropyridine site; binding; 10 µM, Eurofins selectivity panel).
With `NC(=O)c1cc[n+](CC2=C(C(=O)O)N3C(=O)[C@@H](NC(=O)[C@@H](c4ccccc4)S(=O)(=O)[O-])[C@H]3SC2)cc1` the kinact/KI was 17000 ± 2400 M⁻¹ s⁻¹ (PBP1b Streptococcus pneumoniae; Bocillin-FL competition; live Streptococcus pneumoniae cells; 30 min, added: Bocillin-FL 600 nM).
